Published values collected from several papers.
Parts stem from different laboratories: compare values within a part only. “And” joins repeats or separate records; there may be more than shown.

Block 1 — observed: ligand displacement; method: radioligand; concentration: 10 µM; measurement: inhibition
Target: 5-hydroxytryptamine receptor 1E (HTR1E, Homo sapiens, UniProt P28566)
Chain of UniProt P28566 (whole entry, looked up): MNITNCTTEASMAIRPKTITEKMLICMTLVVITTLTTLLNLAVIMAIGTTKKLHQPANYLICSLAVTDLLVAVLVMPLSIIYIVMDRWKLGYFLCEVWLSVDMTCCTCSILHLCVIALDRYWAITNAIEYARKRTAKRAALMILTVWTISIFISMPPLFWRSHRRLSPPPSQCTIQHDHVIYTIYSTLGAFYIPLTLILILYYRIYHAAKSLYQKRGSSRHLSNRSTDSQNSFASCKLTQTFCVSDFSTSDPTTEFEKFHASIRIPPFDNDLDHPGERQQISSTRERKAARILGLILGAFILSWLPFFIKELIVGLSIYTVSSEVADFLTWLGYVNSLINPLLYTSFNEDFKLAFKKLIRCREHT
O=C(N1CCS(=O)(=O)CC1)N1C[C@H](c2ccc(OC(F)(F)F)cc2)C[C@H](c2nc(C3CC3)no2)C1: -20.3%
CCNC(=O)c1cc2c(N3CCOC[C@@H]3C)ccnc2[nH]1: 10.6%
FC(F)(F)c1ccc2c(c1)nc(-c1cccnc1)n2C1CC1: -18.6%
O=C(O)[C@H]1[C@H](Cn2nnc3ccccc3c2=O)CC[C@@H]1C(=O)c1ccc(OCCC2CCOCC2)cc1: 7.37%
CCS(=O)(=O)c1cc2cc(C[C@@](O)(CC(C)(C)c3ccc(F)cc3C(N)=O)C(F)(F)F)[nH]c2cn1: 11.2%

Block 2 — observed: enzyme activity; mode: inhibitor; concentration: 0.5 µM; relative to: control; measurement: remaining activity
Target: Tyrosine-protein kinase Fer (FER, Homo sapiens, UniProt P16591)
Chain of UniProt P16591 (whole entry, looked up): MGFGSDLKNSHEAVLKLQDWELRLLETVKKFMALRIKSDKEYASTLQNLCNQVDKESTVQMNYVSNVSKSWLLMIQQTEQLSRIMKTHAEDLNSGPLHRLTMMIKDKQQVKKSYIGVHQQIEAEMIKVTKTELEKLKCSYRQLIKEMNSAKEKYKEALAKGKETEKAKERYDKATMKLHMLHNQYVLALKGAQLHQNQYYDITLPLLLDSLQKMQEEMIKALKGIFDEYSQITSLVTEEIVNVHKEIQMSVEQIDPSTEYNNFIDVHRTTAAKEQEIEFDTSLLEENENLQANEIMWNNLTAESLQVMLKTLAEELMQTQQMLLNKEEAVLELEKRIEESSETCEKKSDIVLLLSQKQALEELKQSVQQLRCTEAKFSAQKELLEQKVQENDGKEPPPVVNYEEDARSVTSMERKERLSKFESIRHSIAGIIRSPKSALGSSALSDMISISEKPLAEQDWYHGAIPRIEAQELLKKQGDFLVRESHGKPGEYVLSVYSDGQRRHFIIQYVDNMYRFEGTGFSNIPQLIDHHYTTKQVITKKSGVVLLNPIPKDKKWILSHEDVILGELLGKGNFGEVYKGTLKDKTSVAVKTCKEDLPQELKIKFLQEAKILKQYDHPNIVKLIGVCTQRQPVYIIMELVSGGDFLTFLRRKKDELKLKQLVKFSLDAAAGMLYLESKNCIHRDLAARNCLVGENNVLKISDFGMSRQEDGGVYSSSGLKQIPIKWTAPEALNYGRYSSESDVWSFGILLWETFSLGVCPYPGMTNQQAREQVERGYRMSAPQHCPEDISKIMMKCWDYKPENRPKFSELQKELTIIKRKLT
CN(C)C[C@H]1CCn2c(c(C3=C(c4cn(C)c5ccccc45)C(=O)NC3=O)c3ccccc32)C1: 69.2%
COc1cc2ncnc(Nc3ccc(O)c(Br)c3)c2cc1OC: 85.2%
CCN(CC)C(=O)c1ccc(Nc2nc(OCC3CCCCC3)c3[nH]cnc3n2)cc1: 42%
Cn1nc2c3c(cccc31)C(=O)c1ccccc1-2: 99.2%
c1ccc(-c2cnc(Nc3ccc(OCCN4CCCC4)cc3)s2)cc1: 90%
Cc1cn(-c2cc(NC(=O)c3ccc(C)c(Nc4nccc(-c5cccnc5)n4)c3)cc(C(F)(F)F)c2)cn1: 93.6%
N#Cc1c(NC(=O)c2cccc3ccccc23)sc2c1CCCC2: 99.7%
c1ccc(-c2[nH]ncc2-c2ccnc3ccccc23)nc1: 86%
CCN(CC)CCNC(=O)c1c(C)[nH]c(/C=C2\C(=O)Nc3ccc(F)cc32)c1C: 31.6%
O=C1c2ccccc2-c2n[nH]c3cccc1c23: 69.4%
N#C/C(=C\c1ccc(O)c(O)c1)C(=O)NCc1ccccc1: 86.2%
O=C(Nc1cccc(Nc2nccc(Nc3cccc(C(F)(F)F)c3)n2)c1)C1CC1: 93%
Cc1nc2cc3nc(-c4cccs4)cnc3cc2n1C: 104%
COc1cc2ncnc(Nc3cccc(Cl)c3)c2cc1OC: 77.1%
O=C1C(Cl)=C(N2C(=O)CCC2=O)C(=O)c2ccccc21: 103%
COc1cc2c(cc1OC)-c1[nH]nc(Nc3cccc(F)c3)c1C2: 94%
CCOc1nc(NC(=O)Cc2cc(OC)ccc2OC)cc(N)c1C#N: 94.1%
Ic1cccc(CSc2nnc(-c3ccncc3)o2)c1: 101%
CN([C@@H](Cc1ccc(OS(=O)(=O)c2cccc3cnccc23)cc1)C(=O)N1CCN(c2ccccc2)CC1)S(=O)(=O)c1cccc2cnccc12: 100%
Cc1cc2ncc(-c3ccccc3)nc2cc1C: 91%
Nc1cccc(-c2cc3c(Oc4cccc(O)c4)ncnc3[nH]2)c1: 44%
O=C(NC(NC(=S)Nc1ccc(F)c([N+](=O)[O-])c1)C(Cl)(Cl)Cl)C(c1ccccc1)c1ccccc1 (stereo not shown): 104%

Block 3 — cell line: mouse MPNST tumor cells; method: high-content nuclear imaging; refers to: cell number; concentration: 10 µM; time: 12 h; setting: mean of 2 replicates; relative to: plate mean; direction: higher = more cells; measurement: nuclei count
NC(=O)NC1NC(=O)NC1=O (stereo not shown): 0.279 z-score
Cc1cccc(CN2CCN(C(c3ccccc3)c3ccc(Cl)cc3)CC2)c1 (stereo not shown): 0.0404 z-score and 0.534 z-score
Clc1ccc(CCCOCCCN2CCCCC2)cc1: 3.17 z-score
OCCNC1CCCc2c1[nH]c1ccc(-c3ccccc3)cc21 (stereo not shown): -4.9 z-score
Nc1nnc(-c2cccc(Cl)c2Cl)c(N)n1: 0.529 z-score and 0.656 z-score
CC(=O)N(CC(C)C(=O)O)c1c(I)cc(I)c(N)c1I (stereo not shown): -0.334 z-score
Clc1ccc(Cn2c(CN3CCCC3)nc3ccccc32)cc1: 2.96 z-score and 4.88 z-score

Block 4 — method: phase 2a trial; species: idiopathic pulmonary fibrosis patients; measurement: adverse event incidence
Compound: CC(C)n1cnc(-c2ccc(F)cc2)c1-c1ncc(C(=O)Nc2ccc(N3CCN(C)CC3)cc2)[nH]1
refers to: allergic conjunctivitis; 60 mg once daily, grade 5: 0%
refers to: infection; 30 mg once daily, grade 3: 0%
refers to: drug eruption; 60 mg once daily, grade 3: 0%
refers to: ECG ST segment abnormal; 60 mg once daily, grade 5: 0%
refers to: QRS axis abnormal; dose not given, grade 2, all arms pooled: 0%
refers to: chronic gastritis; 30 mg once daily, grade 3: 0%
refers to: carotid intima-media thickening; dose not given, grade 4, all arms pooled: 0%
refers to: hepatic enzyme abnormal; 30 mg once daily, grade 1: 0%
refers to: arthritis; 60 mg once daily, grade 4: 0%
refers to: immunoglobulins increased; 30 mg once daily, grade 2: 0%
refers to: immunoglobulins increased; dose not given, grade 4, all arms pooled: 0%

Single results of other studies — concentration: 100 µM
C[C@H](Cc1cc2c(c(C(N)=O)c1)N(CCCO)CC2)NCCOc1ccccc1OCC(F)(F)F — viability (HaCaT; 36 h): 86.6%
O=C1c2c(O)cccc2Cc2cccc(O)c21 — viability (HaCaT; 36 h): 74.4%
CN(N=O)C(=O)N[C@@H](C=O)[C@@H](O)[C@H](O)[C@H](O)CO — viability (HaCaT; 36 h): 93.4%
C[C@@H]1O[C@@]2(CS1)CN1CCC2CC1 — viability (A-375; 60 h): 95.4%

Some of these lines once more (block 3):
Clc1ccc(Cn2c(CN3CCCC3)nc3ccccc32)cc1: 2.96 z-score and 4.88 z-score
Clc1ccc(CCCOCCCN2CCCCC2)cc1: 3.17 z-score
Nc1nnc(-c2cccc(Cl)c2Cl)c(N)n1: 0.529 z-score and 0.656 z-score
Cc1cccc(CN2CCN(C(c3ccccc3)c3ccc(Cl)cc3)CC2)c1 (stereo not shown): 0.0404 z-score and 0.534 z-score
NC(=O)NC1NC(=O)NC1=O (stereo not shown): 0.279 z-score
OCCNC1CCCc2c1[nH]c1ccc(-c3ccccc3)cc21 (stereo not shown): -4.9 z-score
CC(=O)N(CC(C)C(=O)O)c1c(I)cc(I)c(N)c1I (stereo not shown): -0.334 z-score
